Measured values gathered from unrelated publications.
Values joined by “and” are separate records of one study, mostly repeats; a detail may differ.
HLA class I histocompatibility antigen, A alpha chain allele A*02:01: HLA class I histocompatibility antigen, A alpha chain, allele A*02:01 (Homo sapiens, UniProt P04439)
HLA class I histocompatibility antigen, A alpha chain: HLA class I histocompatibility antigen, A alpha chain (Homo sapiens, UniProt P04439)
UniProt P48067, sequence (whole entry, looked up): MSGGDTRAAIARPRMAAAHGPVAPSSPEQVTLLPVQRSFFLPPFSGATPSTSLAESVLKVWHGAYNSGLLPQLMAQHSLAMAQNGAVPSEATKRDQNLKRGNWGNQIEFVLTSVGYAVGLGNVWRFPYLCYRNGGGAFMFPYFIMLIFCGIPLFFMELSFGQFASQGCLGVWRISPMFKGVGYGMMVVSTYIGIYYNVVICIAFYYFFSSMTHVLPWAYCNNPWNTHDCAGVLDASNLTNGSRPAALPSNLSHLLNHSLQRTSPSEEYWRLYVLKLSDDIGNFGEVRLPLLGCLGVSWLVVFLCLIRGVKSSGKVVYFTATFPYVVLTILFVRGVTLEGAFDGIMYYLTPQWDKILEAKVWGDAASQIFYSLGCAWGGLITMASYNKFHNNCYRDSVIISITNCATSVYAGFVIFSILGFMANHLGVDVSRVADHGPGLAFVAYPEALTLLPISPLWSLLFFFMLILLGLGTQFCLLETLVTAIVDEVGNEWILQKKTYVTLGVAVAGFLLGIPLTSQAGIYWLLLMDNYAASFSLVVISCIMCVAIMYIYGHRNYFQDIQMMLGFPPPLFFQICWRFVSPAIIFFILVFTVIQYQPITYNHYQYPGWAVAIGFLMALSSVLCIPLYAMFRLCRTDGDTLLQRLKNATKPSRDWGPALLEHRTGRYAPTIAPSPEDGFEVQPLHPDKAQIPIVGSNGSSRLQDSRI
UniProt Q64663, sequence (whole entry, unmodified, looked up): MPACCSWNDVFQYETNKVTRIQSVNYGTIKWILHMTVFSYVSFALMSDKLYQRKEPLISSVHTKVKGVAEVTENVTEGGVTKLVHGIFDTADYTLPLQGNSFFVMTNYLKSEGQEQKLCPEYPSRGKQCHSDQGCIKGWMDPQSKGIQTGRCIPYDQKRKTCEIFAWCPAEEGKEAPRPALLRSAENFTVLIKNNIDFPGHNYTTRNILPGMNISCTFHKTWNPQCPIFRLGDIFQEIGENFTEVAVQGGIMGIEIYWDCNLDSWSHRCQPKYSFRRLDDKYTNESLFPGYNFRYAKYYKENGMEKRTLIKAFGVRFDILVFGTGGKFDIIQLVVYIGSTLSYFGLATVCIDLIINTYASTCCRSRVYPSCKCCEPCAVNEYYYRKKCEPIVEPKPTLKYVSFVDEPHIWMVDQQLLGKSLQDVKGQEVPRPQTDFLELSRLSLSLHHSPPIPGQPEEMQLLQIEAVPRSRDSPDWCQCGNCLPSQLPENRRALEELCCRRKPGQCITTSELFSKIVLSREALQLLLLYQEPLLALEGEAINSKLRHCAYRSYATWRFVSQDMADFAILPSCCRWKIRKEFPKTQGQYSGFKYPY

Molecule | tested on | assay | system | setting | how to read | endpoint | result
ALYDVRTIL | HLA class I histocompatibility antigen, A alpha chain allele A*02:01 | HLA-A2 stabilization, peptide titration | peptide, T2 | 20 h, 37 °C, together with: human β2-microglobulin 100 ng/mL | relative to: HIVpol reference peptide, lower is stronger | relative affinity | 14.3
GIQNSVSANK | HLA class I histocompatibility antigen, A alpha chain | iTopia initial binding | peptide | 11 µM, 18 h, 21 °C, HLA-A3 allele | relative to: allele positive control peptide | binding | 51%
BzATP | P2X purinoceptor 7 (P2rx7, Rattus norvegicus, UniProt Q64663) | ion current, agonist, two-electrode voltage clamp | Xenopus laevis oocytes | 1.23 µM | relative to: highest concentration response | normalized current | 0.47 and 0.45 and 0.58
LIMQLMPFGCL | HLA class I histocompatibility antigen, A alpha chain allele A*02:01 | complex stability, off-rate | peptide | 37 °C | – | half-life of peptide-HLA complex | 1.7 h
AMNSLSLYI | HLA class I histocompatibility antigen, A alpha chain allele A*02:01 | HLA-A2 stabilization, peptide titration | peptide, T2 | 20 h, 37 °C, together with: human β2-microglobulin 100 ng/mL | relative to: HIVpol reference peptide, lower is stronger | relative affinity | 6.78
VMNILLQYV | HLA class I histocompatibility antigen, A alpha chain allele A*02:01 | – | peptide | concentration not given | – | peptide exchange | ~86%
LMFGAPALV | HLA class I histocompatibility antigen, A alpha chain allele A*02:01 | HLA-A2 stabilization, peptide titration | peptide, T2 | 20 h, 37 °C, together with: human β2-microglobulin 100 ng/mL | relative to: HIVpol reference peptide, lower is stronger | relative affinity | 1.27
MQLMPFGCLL | HLA class I histocompatibility antigen, A alpha chain allele A*02:01 | conformational ELISA | peptide | concentration not given | relative to: positive control peptide, direction not given | binding score | 57.6%
TVTLFNVTR | HLA class I histocompatibility antigen, A alpha chain | iTopia initial binding | peptide | 11 µM, 18 h, 21 °C, HLA-A3 allele | relative to: allele positive control peptide | binding | 23%
methyl-β-cyclodextrin | SLC6A9 (Homo sapiens, UniProt P48067) | transport activity, [3H]glycine uptake | – | 2.5 mg/mL, 1 min, together with: glycine 37.5 µM | higher = more transport | glycine uptake rate | 15 a.u. and 23.5 a.u. and 24.7 a.u. and 14.5 a.u. and 23.1 a.u.
GGGAGAACUUCGACCAGAAGUCUAGACACUACGCGAAAAGAACCCACGCCUGUGUCUACGUAUGUGCGCAUACAUGGAUCCUC (ssRNA; 2'-fluoro pyrimidines) | integrin alphaV/beta3 31-992/27-718 (Homo sapiens) | SPR | RNA | together with: MnCl2 1 mM | higher = more binding | relative binding | 65.4 RU
IMQLMPFG | HLA class I histocompatibility antigen, A alpha chain allele A*02:01 | conformational ELISA | peptide | concentration not given | relative to: positive control peptide, direction not given | binding score | 7.3%
6-carboxyfluorescein | SLCO2A1 (Homo sapiens, UniProt Q92959, Y90A) | compound uptake, substrate | HEK293F expressing SLCO2A1 Y90A | 50 µM | relative to: wild type | uptake | 60.3% and 65.3%
FLLVTPHLTK | HLA class I histocompatibility antigen, A alpha chain | peptide-MHC binding, iTopia initial binding | peptide, plate-bound HLA heavy chain | 11 µM, 18 h, 21 °C, HLA-A3 allele | relative to: allele-matched positive control peptide | binding | 67%
GLAQWISHV | Jurkat T cells expressing 1G4 TCR | NFAT-eGFP reporter, fluorescence microscopy | peptide | concentration not given, HLA-A*02:01 NY-ESO system | – | reporter activation | 0.00823%
